Results collected from several papers.
Each numbered part is a random draw from the data of one study; scales do not carry over between parts.

Set 1 — technique: RNA Bind-n-Seq; form: RNA; medium: in vitro; tested at: 200 nM; setting: whole 134-nt RNA, ends assumed; with: 150 mM LiCl; baseline: input library; reading: higher = stronger binding; each molecule: 7-deaza-guanosine replaces G
Target: Fragile X messenger ribonucleoprotein 1, C-terminal low-complexity region (Fmr1, Mus musculus, UniProt P35922)
All sequences stand within: GGGAGUUCUACAGUCCGACGAUC … UGGAAUUCUCGGGUGUCAAGG
Strand | log2 enrichment
CAAGUCCUGUGCUACACAUCGUAUGUACCGAAUCGGUUUUGGUUUUGGGUUUUGGAAAGUAUUAUGUUACGCCGUUCGGAUCUGCACUUC | -1.68
UGACCUGCACGGACAUCAACACCCUGACAAGGCAGAAGGAACUUCUCCUGCAGAAGCUGAGCACAUUUGAGGAGACCAACCGCACCCUCC | 0.349
CCUGUGCUACACAUCGUAUGUACCGAAUCGGGAAAAAAGGGAAAAAAGGGAAAAAAGGGGAAAGUAUUAUGUUACGCCGUUCGGAUCUGC | -0.173
AGUCCUGUGCUACACAUCGUAUGUACCGAAUCGGGAAAAAGGGAAAAAGGGAAAGGGAAAGUAUUAUGUUACGCCGUUCGGAUCUGCACU | -1.03
ACCAUGCAGGUGGGCAUCUUUGGGAAGUGGGGCAAGGGGGGAAUAGGGAGGGGGGUAACACUUUGGGAACAGGUGGUCCCAGGUCGUUUC | 1.22
CCUCUGGACGAGACCAGCCAGAUGAGCGACCUCCCGGUGAAGGUGAUCCACGUGGAGAGUGGGAAGAUCCUCACAGGCACAGAUGCCCCC | 1.01
UAACUUUAGAGGAGGAUCUGAUGGAUAUGGCAGUGGACGUGGAUUUGGGGAUGGCUAUAAUGGGUAUGGAGCAGGACCUGGAGGUGGCAA | 0.435
UUUUAGAAAGAGAAGGGGAAGAAAAUGAAGCCUUACAUAAGAUGAUUGCAAACGAGCAAAAGACUUCUCUCCCAAAUUUGUUCCAGGAUA | -2.88

Set 2 — technique: RNA Bind-n-Seq; form: RNA; medium: in vitro; tested at: 365 nM; baseline: no-protein control; reading: higher = stronger binding
Target: RNA binding protein fox-1 homolog 2, RRM domain, GST-SBP tag (RBFOX2, Homo sapiens, UniProt O43251-10, residues 100-194)
Setting: natural RNA segment, single round, ends assumed
All sequences stand within: GGGAGUUCUACAGUCCGACGAUC … UGGAAUUCUCGGGUGCCAA
Construct (chain): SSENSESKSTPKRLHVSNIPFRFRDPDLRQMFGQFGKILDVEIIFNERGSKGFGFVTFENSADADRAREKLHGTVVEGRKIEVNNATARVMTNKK
Strand | RBNS enrichment (R)
CCACAGGAUUGAAGACUGCUUGGCAGUCCUCCCAAUCCCACACCUCCUGUUUGCCAGGGGAAAGAACCUAAAGACUUCGUGUGAUUGGGAGGGGUGGCAGACAGGAAGAA | 0.346
UCUCUCUAGGGAAUCUCAUUUGUUACAGGUGAGAAGACAGAGGGUUUUAUGGUGCCUGAGUUAGUCCUGUGCCUAACCAGUGGAGUUUCCGUCUCUGUGCUUGCUAAUAG | 0.398
UACUCUUAACUGUUUAUGCAAAUUGUAUAAGGUUUCUUAUGCCCAAGCUUGAAAAAUGAUUUCCCAGUAGACAAGAGGCCCCCACCCAUCCUCCAAUUGUGUUUAUUUAC | 0.931
AUCUAAGACAGUGGAUUUUUCAAAAAGACCUUUUUUCUAUUGUUUGAGAAAAAUCAUUGUUUCUUGUGAAACUGCGUGUCUUCCCUAAAAAUAAUAAAAUUCAGAAAUGU | 0.942
GUCAUUCUUAGUGUUCAGGUGCUAAAGGUUGUUCUCUUUGGGAACAGAGUGACAAGAAACUGGCUAGUUUGCUAUAAAUCCUACAUUCUGUUUGAUACCUUGAGAGCAGA | 0.282
CCUCAUGUCCUCAGUGGUCUGGCAAGCCGUUCACCCCUGCUGACAGGCUUCAAGCUGCUAAACACCUUCGAGGGCAGUGGCCUCAUCAGUCUGCCAGGGAGACAAGUACA | 0.367
GGGGGAAGGGGUGACUGAACUGGGAGUCCAGGGAGGGAGCUGAGGAGCCCUUACCCUCCCACCACUCCCCUCCCAAGACCCAGCCGCCGCCGUUGAGGGCUGAGUCCUUG | 0.526
GUGUAUGGUCUCCUUCUCCCGAAAGUGUACUUAAUCUUUGCUUUCUUUGCACAAUGUCUUUGGUUGCAAGUCAUAAGCCUGAGGCAAAUAAAAUUCCAGUAAUUUCCAAG | 3.6

Set 3 — technique: RNA Bind-n-Seq; form: RNA; medium: in vitro; tested at: 100 nM; baseline: input RNA pool; reading: higher = stronger binding
Target: RING finger protein unkempt homolog, zinc fingers 1-6, SBP tag (UNK, Homo sapiens, UniProt Q9C0B0, residues 30-357)
Sequence of UniProt Q9C0B0 (30-357, looked up): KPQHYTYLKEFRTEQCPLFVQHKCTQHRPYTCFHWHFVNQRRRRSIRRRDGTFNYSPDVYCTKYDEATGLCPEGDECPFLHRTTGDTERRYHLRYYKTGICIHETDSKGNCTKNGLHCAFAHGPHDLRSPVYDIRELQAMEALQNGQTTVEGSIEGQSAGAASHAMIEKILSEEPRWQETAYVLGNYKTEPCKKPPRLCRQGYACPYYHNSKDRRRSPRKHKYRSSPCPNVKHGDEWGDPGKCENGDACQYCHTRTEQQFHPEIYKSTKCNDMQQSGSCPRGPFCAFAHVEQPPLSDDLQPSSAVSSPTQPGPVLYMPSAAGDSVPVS
Setting: RNA with constant flanks, vertebrate orthologous sites, ends assumed
All sequences stand within: GGGAGUUCUACAGUCCGACGAUC … CAACAGAGGAUUGAGCAUCA
Strand | bound/input enrichment
UUUUAUGGAUCAGGUUUGUAAAUGUGUACUAAAAAAAUCAGAGUUUAUUUAUAAGUGGAGGAGUUUAUUUAAAAAGGUCACUGAUAUCAUGGUAUGCAUUAAUUCCAUUUGUUCCUAUUG | 0.667 ratio
UUGUGUAGUUUUGUAUUUUCAUGCAAAAAUCUUACUGUACUUGAAUGUCUUUAUUUUAUUAAAUGUGUUUAAAAUUUUGGUUGUUAUAUCCUAGAAUUGCUGUAAUUAUACGUGUCGCAG | 0.433 ratio
CAGCUGAUUCACUCAUUGGGAGAGCUGCACAUAUAGCUGUUCUUGAUUCGGAAAUAUUUUUAGAGAAAUUCUUUCUGGUUGCUGCCCUCAAAUAUUUCCAAUAGGAUAAAAACAUUGUUA | 1.3 ratio
UAUCAGUAGAAUUACAUAAUACUAAAGUUGCCGUUGAAAGAAUAUCCAAGUAUGUGUUGGUAGUUACUUAAAGAAAUAUAGCUGUUAUUGCCUUGUAUUUAUAGUCCUUGUUUCAGGUUU | 1.07 ratio
CGUCCUUUCGCACUGGCCCUGGCCAAGAUGGUGGACUGAGGUUUCAUUGAGGACCUGCAUUUCAAAGUUUUUUAAAUCAUUGUACAGGAAGCGACGUGGCUGAAACAGCCUCUCACAGUU | 0.374 ratio
AUCCCUCAGUGACAGUAUGCCAUCUGUAGCAGACUCCCACUCUAGUCAUUUUUCUGAAUUUAGUUGUUCUGACCUAGAAAGCAUGAAAACUUCUUGUAGCCAUGGUUCCAAUGAUUAUCA | 3.28 ratio
UAUGAAAAGGCUGGAACCCUCCCACCACUUUGCUUCUCUUCACUGGAGGCGUCUGACACCUAGUUUCUCGUUUUUGUUAAAUUGAUUUCUUGUAACAUCAAAUAGGAAUGCUAACUGAUC | 0.428 ratio
ACCUCCAAUAGGCUAAUUCAGGGAAAGGAAACAGGCUUCAGGGAAUAUAAAUUAAUAUAGUAGUGGUCAUGAAGAAUAACUUUGAUAUAACUGAUUUGGGGGAGUGAUGGCAACUUGUGA | 0.906 ratio

Set 4 — technique: protein binding microarray; form: double-stranded DNA, one strand shown; medium: in vitro; tested at: not given; baseline: not given; reading: higher = stronger binding
Target: Histone acetyltransferase KAT6A, both winged helices, GST fusion (KAT6A, Homo sapiens, UniProt Q92794, residues 1-181)
Setting: 8-mer, flanks averaged, mean of 2 arrays, mostly near background
Construct (chain): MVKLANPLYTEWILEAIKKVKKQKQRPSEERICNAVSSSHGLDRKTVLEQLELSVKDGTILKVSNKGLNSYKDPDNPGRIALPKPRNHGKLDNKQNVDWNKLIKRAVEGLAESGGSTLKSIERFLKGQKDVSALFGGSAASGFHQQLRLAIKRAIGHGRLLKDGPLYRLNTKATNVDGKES
Strand | E-score
ACTCAGAT | -0.109
ACATCCGT | 0.181
CCGCCCCG | 0.269
CCTCATCA | -0.0234
AACTGTTG | -0.13
CTCCTGTA | -0.0546
CTATAATC | -0.193
AAATTGTC | 0.00198
GCGCATCC | 0.283
CGCACTAA | 0.0556
GATGGCGC | 0.205
TCAGCCCA | -0.116
TAGTATAA | -0.0457
AAGCAATC | -0.0404
GCGAAGAA | -0.00504
AATAGATC | -0.0528
CCGTCGAA | 0.191
CAATATAC | -0.0659
GTCATCTA | 0.00641
ACTAGACG | 0.0674
CGCCCACA | 0.115
CATTGCTC | -0.0842

Repeated from above (set 4):
Strand | E-score
GCGAAGAA | -0.00504
AATAGATC | -0.0528
CCGTCGAA | 0.191
CAATATAC | -0.0659
GTCATCTA | 0.00641
ACTAGACG | 0.0674
